Experimental data collected from several papers.
Numbered parts are unrelated; each lists some results of a single study.
Sequence of UniProt O15146 (whole entry, looked up): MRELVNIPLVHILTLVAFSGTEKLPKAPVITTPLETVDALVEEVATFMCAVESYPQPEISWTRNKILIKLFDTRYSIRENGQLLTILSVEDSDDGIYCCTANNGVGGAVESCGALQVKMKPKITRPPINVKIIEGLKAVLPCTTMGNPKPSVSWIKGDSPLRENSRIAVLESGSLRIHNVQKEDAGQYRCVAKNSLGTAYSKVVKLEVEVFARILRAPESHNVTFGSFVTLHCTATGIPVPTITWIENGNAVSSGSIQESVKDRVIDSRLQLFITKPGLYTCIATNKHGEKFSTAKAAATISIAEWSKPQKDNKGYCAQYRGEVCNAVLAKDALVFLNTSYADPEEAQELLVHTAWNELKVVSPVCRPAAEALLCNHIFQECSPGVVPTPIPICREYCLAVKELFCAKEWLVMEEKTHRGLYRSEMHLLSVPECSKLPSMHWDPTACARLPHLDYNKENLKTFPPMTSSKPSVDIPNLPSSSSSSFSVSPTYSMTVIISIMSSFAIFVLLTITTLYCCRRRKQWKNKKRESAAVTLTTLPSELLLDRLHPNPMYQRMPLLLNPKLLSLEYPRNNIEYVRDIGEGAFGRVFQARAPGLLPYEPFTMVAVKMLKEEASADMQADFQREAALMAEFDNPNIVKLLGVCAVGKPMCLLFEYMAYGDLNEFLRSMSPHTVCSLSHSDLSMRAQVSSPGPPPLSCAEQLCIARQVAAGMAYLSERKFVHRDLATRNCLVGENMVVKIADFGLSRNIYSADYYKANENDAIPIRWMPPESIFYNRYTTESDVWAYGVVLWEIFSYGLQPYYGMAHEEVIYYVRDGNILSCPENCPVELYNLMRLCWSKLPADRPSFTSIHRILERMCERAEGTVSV
Sequence of UniProt P11802 (whole entry, looked up): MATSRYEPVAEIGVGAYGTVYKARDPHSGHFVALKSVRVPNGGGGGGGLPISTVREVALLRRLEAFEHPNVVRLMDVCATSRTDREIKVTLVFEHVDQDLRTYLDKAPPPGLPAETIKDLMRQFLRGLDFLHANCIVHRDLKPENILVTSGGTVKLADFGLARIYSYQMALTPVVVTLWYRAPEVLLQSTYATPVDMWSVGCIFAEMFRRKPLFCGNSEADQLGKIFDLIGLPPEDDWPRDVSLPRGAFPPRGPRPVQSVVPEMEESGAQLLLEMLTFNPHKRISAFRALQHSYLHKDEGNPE
Sequence of UniProt O14730 (whole entry, looked up): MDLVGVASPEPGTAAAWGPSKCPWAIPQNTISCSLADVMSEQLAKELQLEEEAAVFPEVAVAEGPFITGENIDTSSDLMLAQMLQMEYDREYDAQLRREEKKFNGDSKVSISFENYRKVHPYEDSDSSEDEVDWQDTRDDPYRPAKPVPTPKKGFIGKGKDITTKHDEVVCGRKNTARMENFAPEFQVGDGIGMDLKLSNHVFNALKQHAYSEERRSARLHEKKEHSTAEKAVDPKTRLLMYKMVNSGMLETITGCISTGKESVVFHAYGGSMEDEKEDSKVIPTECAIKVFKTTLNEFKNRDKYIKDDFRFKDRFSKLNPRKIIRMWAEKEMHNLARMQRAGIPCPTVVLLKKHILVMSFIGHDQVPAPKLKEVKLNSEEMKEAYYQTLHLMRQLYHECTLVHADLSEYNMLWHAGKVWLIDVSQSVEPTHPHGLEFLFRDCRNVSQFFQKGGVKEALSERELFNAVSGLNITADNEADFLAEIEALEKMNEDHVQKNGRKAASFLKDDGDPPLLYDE
Sequence of UniProt P17948 (whole entry, looked up): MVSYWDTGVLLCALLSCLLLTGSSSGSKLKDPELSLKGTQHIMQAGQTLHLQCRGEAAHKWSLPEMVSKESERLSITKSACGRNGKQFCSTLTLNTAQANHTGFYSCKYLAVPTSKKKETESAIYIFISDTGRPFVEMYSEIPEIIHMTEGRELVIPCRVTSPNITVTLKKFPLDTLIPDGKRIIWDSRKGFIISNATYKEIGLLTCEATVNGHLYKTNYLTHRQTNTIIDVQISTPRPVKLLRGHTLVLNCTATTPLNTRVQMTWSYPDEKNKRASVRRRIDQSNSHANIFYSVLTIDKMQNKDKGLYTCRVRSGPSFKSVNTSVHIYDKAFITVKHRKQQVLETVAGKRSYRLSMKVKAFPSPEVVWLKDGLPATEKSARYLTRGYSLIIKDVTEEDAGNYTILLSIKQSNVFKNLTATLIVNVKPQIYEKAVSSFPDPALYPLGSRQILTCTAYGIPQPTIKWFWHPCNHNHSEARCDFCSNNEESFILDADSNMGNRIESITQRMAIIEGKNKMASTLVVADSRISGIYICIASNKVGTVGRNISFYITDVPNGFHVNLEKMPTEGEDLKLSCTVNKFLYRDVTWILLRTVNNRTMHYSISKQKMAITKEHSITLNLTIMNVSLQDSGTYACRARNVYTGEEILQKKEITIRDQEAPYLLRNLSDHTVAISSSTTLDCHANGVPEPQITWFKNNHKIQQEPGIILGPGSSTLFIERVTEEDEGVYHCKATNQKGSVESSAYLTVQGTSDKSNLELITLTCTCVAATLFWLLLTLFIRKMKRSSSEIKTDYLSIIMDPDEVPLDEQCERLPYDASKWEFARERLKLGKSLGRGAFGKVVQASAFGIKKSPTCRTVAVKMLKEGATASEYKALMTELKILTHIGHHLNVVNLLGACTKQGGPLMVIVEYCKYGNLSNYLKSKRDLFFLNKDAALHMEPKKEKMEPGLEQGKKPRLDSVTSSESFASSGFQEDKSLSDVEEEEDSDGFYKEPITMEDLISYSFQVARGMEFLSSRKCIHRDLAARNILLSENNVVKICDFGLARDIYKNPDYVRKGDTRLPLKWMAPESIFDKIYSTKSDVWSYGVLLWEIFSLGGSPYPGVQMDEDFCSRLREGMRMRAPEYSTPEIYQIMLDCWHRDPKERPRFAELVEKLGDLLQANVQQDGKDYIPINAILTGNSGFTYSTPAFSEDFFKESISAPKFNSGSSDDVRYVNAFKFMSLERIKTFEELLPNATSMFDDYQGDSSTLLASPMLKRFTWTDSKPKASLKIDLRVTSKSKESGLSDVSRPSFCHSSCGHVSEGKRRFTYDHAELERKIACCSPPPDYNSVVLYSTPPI
Sequence of UniProt Q13153 (whole entry, looked up): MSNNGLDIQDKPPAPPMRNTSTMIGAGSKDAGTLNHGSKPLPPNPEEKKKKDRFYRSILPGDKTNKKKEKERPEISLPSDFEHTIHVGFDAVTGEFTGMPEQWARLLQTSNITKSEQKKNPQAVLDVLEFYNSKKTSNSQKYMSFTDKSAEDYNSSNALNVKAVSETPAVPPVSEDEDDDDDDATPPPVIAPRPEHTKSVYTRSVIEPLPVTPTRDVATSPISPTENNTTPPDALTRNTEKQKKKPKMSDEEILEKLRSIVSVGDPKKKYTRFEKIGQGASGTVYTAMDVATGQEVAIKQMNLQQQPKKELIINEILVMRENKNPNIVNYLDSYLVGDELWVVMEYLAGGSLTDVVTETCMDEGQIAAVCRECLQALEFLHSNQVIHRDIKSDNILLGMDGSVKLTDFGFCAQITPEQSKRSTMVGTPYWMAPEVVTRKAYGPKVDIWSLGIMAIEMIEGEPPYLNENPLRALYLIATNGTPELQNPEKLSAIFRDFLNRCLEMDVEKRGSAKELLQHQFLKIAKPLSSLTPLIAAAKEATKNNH
Sequence of UniProt Q13470 (whole entry, looked up): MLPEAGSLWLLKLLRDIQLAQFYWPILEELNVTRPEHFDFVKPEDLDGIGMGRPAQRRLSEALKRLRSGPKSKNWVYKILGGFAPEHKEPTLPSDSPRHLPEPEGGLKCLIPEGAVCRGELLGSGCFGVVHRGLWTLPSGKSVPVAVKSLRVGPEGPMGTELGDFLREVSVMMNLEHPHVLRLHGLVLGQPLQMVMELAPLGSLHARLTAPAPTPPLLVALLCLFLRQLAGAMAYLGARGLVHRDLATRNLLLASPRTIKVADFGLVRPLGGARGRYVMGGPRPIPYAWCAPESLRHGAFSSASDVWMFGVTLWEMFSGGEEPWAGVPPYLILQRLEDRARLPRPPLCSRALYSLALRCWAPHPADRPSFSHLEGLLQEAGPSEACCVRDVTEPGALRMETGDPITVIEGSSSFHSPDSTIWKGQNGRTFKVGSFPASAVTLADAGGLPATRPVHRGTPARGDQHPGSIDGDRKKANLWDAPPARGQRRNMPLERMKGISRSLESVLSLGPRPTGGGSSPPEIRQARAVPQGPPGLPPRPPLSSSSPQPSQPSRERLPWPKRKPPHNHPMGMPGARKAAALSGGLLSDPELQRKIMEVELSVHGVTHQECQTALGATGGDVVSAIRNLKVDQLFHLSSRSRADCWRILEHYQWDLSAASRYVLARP
Sequence of UniProt Q8IW41 (whole entry, looked up): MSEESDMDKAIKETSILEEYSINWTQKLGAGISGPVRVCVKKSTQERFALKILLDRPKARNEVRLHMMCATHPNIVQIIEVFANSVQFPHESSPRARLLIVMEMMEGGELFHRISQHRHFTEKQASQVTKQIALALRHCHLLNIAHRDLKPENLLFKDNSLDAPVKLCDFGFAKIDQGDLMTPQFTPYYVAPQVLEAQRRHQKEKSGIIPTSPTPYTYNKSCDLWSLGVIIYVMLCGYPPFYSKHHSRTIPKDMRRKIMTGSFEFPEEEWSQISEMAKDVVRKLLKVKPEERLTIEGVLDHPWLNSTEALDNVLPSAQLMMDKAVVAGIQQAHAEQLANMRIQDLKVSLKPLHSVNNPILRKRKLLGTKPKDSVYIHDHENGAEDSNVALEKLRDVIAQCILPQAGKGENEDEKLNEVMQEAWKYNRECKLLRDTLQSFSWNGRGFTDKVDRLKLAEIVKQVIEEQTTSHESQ

Study 1
Compound: COc1ccc2[nH]c3c4[nH]c5ccc(OC)cc5c4c4c(c3c2c1)C(=O)NC4=O
Read-out: binding
Concentration: 1 µM
Measurement: remaining binding
target = Calcium/calmodulin-dependent protein kinase type IV (CAMK4, Homo sapiens, UniProt Q16566); result = 98%
target = Non-receptor tyrosine-protein kinase TNK1 (TNK1, Homo sapiens, UniProt Q13470); test = competition with immobilised ligand; result = 29%
target = Myosin light chain kinase family member 4 (MYLK4, Homo sapiens, UniProt Q86YV6); result = 49%
target = Serine/threonine-protein kinase D3 (PRKD3, Homo sapiens, UniProt O94806); result = 75%
target = Muscle, skeletal receptor tyrosine-protein kinase (MUSK, Homo sapiens, UniProt O15146); test = competition with immobilised ligand; result = 83%
target = Serine/threonine-protein kinase 32C (STK32C, Homo sapiens, UniProt Q86UX6); result = 84%

Study 2
Species: human
Matrix: microsomes or S9
Concentration: 2 µM
Time: 0.5 h
Measurement: remaining compound
Structure (SMILES) = CNS(=O)(=O)c1ccc(CCC(=O)N(Cc2ccc(F)cc2F)C2CCCC2)cc1; result = 6.76%
Structure (SMILES) = CCc1c2c(nc3sc(C(=O)N4CCc5cc(OC)c(OC)cc5C4)c(N)c13)CC(C)(C)CC2=O; result = 33.1%
Structure (SMILES) = OCCN(CCO)c1ncnc2c1oc1ccc(Cl)cc12; result = 67.7%
Structure (SMILES) = Cc1cnc(C2CC2)n1C1CCN(C(=O)c2ccoc2)CC1; result = > 100%
Structure (SMILES) = CC(NCc1cnc2cnccn12)c1ccc2c(c1)OCO2 (centres unmarked); result = 41.9%
Structure (SMILES) = Brc1ccc(-c2n[nH]c(-c3ccccc3)c2-c2ncc[nH]2)cc1; result = 85.9%
Structure (SMILES) = CS(=O)(=O)N[C@@H]1[C@@H](NC(=O)C2=NNC(=O)CC2)[C@H]2CCO[C@H]21; result = > 100%

Study 3
Technique: PRP chromatography
Notes: linear fit, 1 mL
Measurement: logD 1,9-decadiene/water
Compound = CC(C)C[C@@H]1NC(=O)[C@H](CC(C)C)NC(=O)[C@@H](CC(C)C)NC(=O)[C@@H](CC(C)C)NC(=O)[C@H](C(C)C)NC(=O)[C@H](CC(C)C)NC(=O)[C@@H](CC(C)C)NC1=O; result = 2.28 log units
Compound = CC(C)C[C@@H]1NC(=O)[C@H](CC(C)C)NC(=O)[C@H](CC(C)C)NC(=O)[C@H](C(C)C)NC(=O)[C@@H](Cc2cscn2)NC(=O)[C@H](CCC(=O)N2CCCC2)NC(=O)[C@H](C)NC1=O; result = -1.21 log units
Compound = CC(C)C[C@@H]1NC(=O)[C@H](C)NC(=O)[C@H](C(C)C)NC(=O)[C@H](C)NC(=O)[C@H](C)NC(=O)[C@H](CC(C)C)NC(=O)[C@H](CC(C)C)NC1=O; result = -2.32 log units
Compound = CC(C)C[C@@H]1NC(=O)[C@H](CC(C)C)NC(=O)[C@@H](CC(C)C)NC(=O)[C@H](C(C)C)NC(=O)[C@@H](Cc2cscn2)NC(=O)[C@@H](CC(C)C)NC(=O)[C@H](C)NC1=O; result = -0.619 log units
Compound = CC(C)C[C@@H]1NC(=O)[C@H](C)NC(=O)[C@@H](CC(C)C)NC(=O)[C@@H](CCC(=O)N2CCCC2)NC(=O)[C@H](CC(C)C)NC(=O)[C@@H](CC(C)C)NC(=O)[C@H](CC(C)C)NC1=O; result = 0.0587 log units
Compound = CC(C)C[C@@H]1NC(=O)[C@H](Cc2cscn2)NC(=O)[C@@H](CC(C)C)NC(=O)[C@H](CC(C)C)NC(=O)[C@@H](CCC(=O)N2CCCC2)NC(=O)[C@H](CC(C)C)NC(=O)[C@@H](CC(C)C)NC1=O; result = -4.42 log units

Study 4
SMILES: NS(=O)(=O)c1cc(NC(=O)C2(c3ccccc3Cl)CC2)ccc1Oc1cccc(Cl)c1
Technique: competition with immobilised ligand
Concentration: 1 µM
Measurement: remaining binding
target = Serine/threonine-protein kinase PAK 1 (PAK1, Homo sapiens, UniProt Q13153); test = cell-free assay; result = 79%
target = Ephrin type-B receptor 2 (EPHB2, Homo sapiens, UniProt P29323); test = cell-free assay; result = 74%
target = Tyrosine-protein kinase ABL1, phosphorylated (ABL1, Homo sapiens, UniProt P00519); test = cell-free assay; result = 88%
target = Epidermal growth factor receptor (EGFR, Homo sapiens, UniProt P00533, A750P/del747-749); test = cell-free assay; result = 96%
target = Vascular endothelial growth factor receptor 1 (FLT1, Homo sapiens, UniProt P17948); test = cell-free assay; result = 100%
target = ALK tyrosine kinase receptor (ALK, Homo sapiens, UniProt Q9UM73, C1156Y); test = cell-free assay; result = 100%
target = Cyclin-dependent kinase 4, with cyclin D3 (CDK4, Homo sapiens, UniProt P11802); test = cell-free assay; result = 70%
target = Serine/threonine-protein kinase 32A (STK32A, Homo sapiens, UniProt Q8WU08); test = cell-free assay; result = 90%
target = MAP kinase-activated protein kinase 5 (MAPKAPK5, Homo sapiens, UniProt Q8IW41); test = cell-free assay; result = 89%
target = Tyrosine-protein kinase Fer (FER, Homo sapiens, UniProt P16591); test = cell-free assay; result = 83%
target = Receptor-type tyrosine-protein kinase FLT3 (FLT3, Homo sapiens, UniProt P36888, D835V); test = cell-free assay; result = 100%
target = Dual specificity protein kinase CLK2 (CLK2, Homo sapiens, UniProt P49760); test = cell-free assay; result = 97%
target = Calcium/calmodulin-dependent protein kinase type II subunit beta (CAMK2B, Homo sapiens, UniProt Q13554); test = cell-free assay; result = 100%
target = Phosphatidylinositol 5-phosphate 4-kinase type-2 beta (PIP4K2B, Homo sapiens, UniProt P78356); test = cell-free assay; result = 62%
target = Inhibitor of nuclear factor kappa-B kinase subunit epsilon (IKBKE, Homo sapiens, UniProt Q14164); test = cell-free assay; result = 70%
target = Serine/threonine-protein kinase RIO3 (RIOK3, Homo sapiens, UniProt O14730); test = cell-free assay; result = 73%
target = Cyclin-dependent kinase-like 2 (CDKL2, Homo sapiens, UniProt Q92772); test = binding; result = 94%
target = MAP kinase-interacting serine/threonine-protein kinase 1 (MKNK1, Homo sapiens, UniProt Q9BUB5); test = cell-free assay; result = 99%
target = MAP kinase-activated protein kinase 2 (MAPKAPK2, Homo sapiens, UniProt P49137); test = cell-free assay; result = 90%
target = Activin receptor type-2A (ACVR2A, Homo sapiens, UniProt P27037); test = cell-free assay; result = 96%

Study 5
Cell line: HaCaT
Concentration: 100 µM
Time: 36 h
Measurement: viability
Compound = CNNCc1ccc(C(=O)NC(C)C)cc1; result = 98.2%
Compound = CC(C)Cn1cnc2c(N)nc3ccccc3c21; result = 65.3%
Compound = S=P(N1CC1)(N1CC1)N1CC1; result = 48.7%
Compound = CC[C@H](Nc1ncnc2[nH]cnc12)c1nc2cccc(F)c2c(=O)n1-c1ccccc1; result = 71.8%
Compound = O=C(c1ccc(F)c(F)c1Nc1ccc(I)cc1F)N1CC(O)([C@@H]2CCCCN2)C1; result = 12.3%

For quick reference, copied from above (study 2):
Structure (SMILES) = Cc1cnc(C2CC2)n1C1CCN(C(=O)c2ccoc2)CC1; result = > 100%
Structure (SMILES) = CS(=O)(=O)N[C@@H]1[C@@H](NC(=O)C2=NNC(=O)CC2)[C@H]2CCO[C@H]21; result = > 100%
Structure (SMILES) = OCCN(CCO)c1ncnc2c1oc1ccc(Cl)cc12; result = 67.7%
Structure (SMILES) = CC(NCc1cnc2cnccn12)c1ccc2c(c1)OCO2 (centres unmarked); result = 41.9%
Structure (SMILES) = CNS(=O)(=O)c1ccc(CCC(=O)N(Cc2ccc(F)cc2F)C2CCCC2)cc1; result = 6.76%
